Assay results pooled from the literature.
Each numbered part is a random draw from the data of one study; scales do not carry over between parts. Several values in a cell are separate wells, animals, samples, runs or records.
Chain of UniProt Q9H2X6 (whole entry, looked up): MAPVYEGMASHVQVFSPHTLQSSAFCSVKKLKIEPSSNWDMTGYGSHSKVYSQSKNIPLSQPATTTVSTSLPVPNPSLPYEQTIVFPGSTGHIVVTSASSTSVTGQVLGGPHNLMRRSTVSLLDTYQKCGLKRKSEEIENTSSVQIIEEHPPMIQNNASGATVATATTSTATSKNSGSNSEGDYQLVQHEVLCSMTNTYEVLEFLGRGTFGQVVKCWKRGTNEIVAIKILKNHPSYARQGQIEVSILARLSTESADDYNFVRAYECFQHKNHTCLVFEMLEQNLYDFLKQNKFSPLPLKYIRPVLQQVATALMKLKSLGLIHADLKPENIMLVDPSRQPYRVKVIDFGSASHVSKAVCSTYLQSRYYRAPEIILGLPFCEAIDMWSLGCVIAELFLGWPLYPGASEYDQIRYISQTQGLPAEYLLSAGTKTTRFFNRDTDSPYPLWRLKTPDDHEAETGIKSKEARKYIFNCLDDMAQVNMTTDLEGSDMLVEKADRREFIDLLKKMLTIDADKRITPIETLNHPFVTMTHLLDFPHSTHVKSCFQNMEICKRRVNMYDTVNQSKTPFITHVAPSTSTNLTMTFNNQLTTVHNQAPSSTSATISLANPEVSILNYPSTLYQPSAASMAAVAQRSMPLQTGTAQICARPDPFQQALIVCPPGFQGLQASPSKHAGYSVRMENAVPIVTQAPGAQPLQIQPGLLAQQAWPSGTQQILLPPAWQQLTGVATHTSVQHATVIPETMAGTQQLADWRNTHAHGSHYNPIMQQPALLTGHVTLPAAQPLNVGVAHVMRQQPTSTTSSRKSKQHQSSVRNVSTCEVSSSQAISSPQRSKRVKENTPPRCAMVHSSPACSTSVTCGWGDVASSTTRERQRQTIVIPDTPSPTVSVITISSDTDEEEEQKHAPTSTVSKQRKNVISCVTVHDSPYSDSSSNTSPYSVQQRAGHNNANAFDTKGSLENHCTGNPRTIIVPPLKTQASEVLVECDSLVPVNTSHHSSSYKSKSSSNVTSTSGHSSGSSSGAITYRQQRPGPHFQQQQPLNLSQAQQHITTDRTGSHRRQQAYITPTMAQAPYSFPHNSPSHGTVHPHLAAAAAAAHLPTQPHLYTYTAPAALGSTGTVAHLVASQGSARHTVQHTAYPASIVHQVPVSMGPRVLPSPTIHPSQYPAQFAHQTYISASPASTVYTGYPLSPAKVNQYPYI
Chain of UniProt P50613 (whole entry, looked up): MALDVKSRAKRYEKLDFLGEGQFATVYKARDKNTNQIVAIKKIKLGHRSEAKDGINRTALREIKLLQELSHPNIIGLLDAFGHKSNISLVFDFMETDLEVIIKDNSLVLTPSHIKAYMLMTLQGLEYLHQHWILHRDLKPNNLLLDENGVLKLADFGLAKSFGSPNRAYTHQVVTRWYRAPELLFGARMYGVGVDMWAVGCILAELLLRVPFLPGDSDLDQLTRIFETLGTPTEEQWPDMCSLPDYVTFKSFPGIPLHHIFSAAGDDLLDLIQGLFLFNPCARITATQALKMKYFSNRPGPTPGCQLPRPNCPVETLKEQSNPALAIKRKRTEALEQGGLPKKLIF

Study 1
Target: Eukaryotic initiation factor 4A-III (Homo sapiens, UniProt P38919)
Chain of UniProt P38919 (whole entry, looked up): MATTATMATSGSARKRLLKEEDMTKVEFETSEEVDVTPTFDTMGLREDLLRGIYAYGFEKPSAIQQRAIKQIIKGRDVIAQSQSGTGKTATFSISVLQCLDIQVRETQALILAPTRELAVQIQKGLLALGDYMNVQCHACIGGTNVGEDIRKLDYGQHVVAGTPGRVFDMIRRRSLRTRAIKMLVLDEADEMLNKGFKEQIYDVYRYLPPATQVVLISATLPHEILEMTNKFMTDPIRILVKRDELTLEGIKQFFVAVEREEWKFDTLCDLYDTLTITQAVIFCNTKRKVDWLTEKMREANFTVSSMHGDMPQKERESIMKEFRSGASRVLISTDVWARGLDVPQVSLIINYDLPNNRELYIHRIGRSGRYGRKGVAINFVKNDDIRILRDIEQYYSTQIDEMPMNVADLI
Effect on: RNA clamping
Method: fluorescence polarization
Concentration: concentration not given
Notes: mean of two replicates
With: FAM-labelled poly r(AG)8 RNA
SMILES	fluorescence polarization change
COc1cc(F)cc2c1[C@]1(O)[C@H](O)[C@H](/C(N)=N/O)[C@@H](c3ccccc3)[C@]1(c1ccc(Br)cc1)O2	41.1 mP
COc1ccc([C@@]23Oc4cc(OC)cc(OC)c4[C@]2(O)C(=O)C[C@H]3c2ccccc2)cc1	32.6 mP
COc1ccc([C@@]23Oc4cc(OC)cc(OC)c4[C@]2(O)c2nc(-c4ccc(F)cc4)[nH]c(=O)c2[C@H]3c2ccccc2)cc1	7.9 mP
CONC(=O)[C@H]1[C@@H](O)[C@@]2(O)c3c(OC)cc(OC)cc3O[C@@]2(c2ccc(OC)cc2)[C@@H]1c1ccccc1	28.3 mP and 55.5 mP and 53.1 mP
COc1ccc([C@@]23Oc4cc(OC)cc(OC)c4[C@]2(O)c2nc(-c4cccc(C)c4)[nH]c(=O)c2[C@H]3c2ccccc2)cc1	11.2 mP
COCCN[C@]12c3c(OC)cc(OC)cc3O[C@@]1(c1ccc(OC)cc1)[C@H](c1ccccc1)[C@@H](C(=O)N(C)C)[C@H]2O	3.9 mP
COC(=O)[C@H]1[C@H](c2ccccc2)[C@@]2(c3ccc(OC)cc3)Oc3cc(OC)cc(OC)c3[C@]1(O)[C@H]2O	0.5 mP

Study 2
SMILES: O=C1CCC(N2Cc3c(ccc4c3OCC43CCN(Cc4ccccc4)CC3)C2=O)C(=O)N1 (stereo not shown)
Sample: plasma
Route: intravenous
Dose: 1.0 mg/kg
species	terminal volume of distribution [L/kg]
Sprague Dawley rats, male	3.69
ICR mice, male	5.55
Sprague Dawley rat, male	3.81

Study 3
SMILES: Cn1cncc1[C@](O)(COc1ccc(C#N)cc1-c1ccc(OC(F)(F)F)cc1)c1ccc(C#N)cc1
Effect on: binding
Method: competition with immobilised ligand
target	Kd [µM]
BRSK2 (Homo sapiens, UniProt Q8IWQ3)	> 10
EPHA1 (Homo sapiens, UniProt P21709)	> 10
HIPK2 (Homo sapiens, UniProt Q9H2X6)	> 10
CDK7 (Homo sapiens, UniProt P50613)	> 10

Study 4
Target: DNA polymerase theta, ATPase domain (POLQ, Homo sapiens, UniProt O75417)
Chain of UniProt O75417 (whole entry, unmodified, looked up): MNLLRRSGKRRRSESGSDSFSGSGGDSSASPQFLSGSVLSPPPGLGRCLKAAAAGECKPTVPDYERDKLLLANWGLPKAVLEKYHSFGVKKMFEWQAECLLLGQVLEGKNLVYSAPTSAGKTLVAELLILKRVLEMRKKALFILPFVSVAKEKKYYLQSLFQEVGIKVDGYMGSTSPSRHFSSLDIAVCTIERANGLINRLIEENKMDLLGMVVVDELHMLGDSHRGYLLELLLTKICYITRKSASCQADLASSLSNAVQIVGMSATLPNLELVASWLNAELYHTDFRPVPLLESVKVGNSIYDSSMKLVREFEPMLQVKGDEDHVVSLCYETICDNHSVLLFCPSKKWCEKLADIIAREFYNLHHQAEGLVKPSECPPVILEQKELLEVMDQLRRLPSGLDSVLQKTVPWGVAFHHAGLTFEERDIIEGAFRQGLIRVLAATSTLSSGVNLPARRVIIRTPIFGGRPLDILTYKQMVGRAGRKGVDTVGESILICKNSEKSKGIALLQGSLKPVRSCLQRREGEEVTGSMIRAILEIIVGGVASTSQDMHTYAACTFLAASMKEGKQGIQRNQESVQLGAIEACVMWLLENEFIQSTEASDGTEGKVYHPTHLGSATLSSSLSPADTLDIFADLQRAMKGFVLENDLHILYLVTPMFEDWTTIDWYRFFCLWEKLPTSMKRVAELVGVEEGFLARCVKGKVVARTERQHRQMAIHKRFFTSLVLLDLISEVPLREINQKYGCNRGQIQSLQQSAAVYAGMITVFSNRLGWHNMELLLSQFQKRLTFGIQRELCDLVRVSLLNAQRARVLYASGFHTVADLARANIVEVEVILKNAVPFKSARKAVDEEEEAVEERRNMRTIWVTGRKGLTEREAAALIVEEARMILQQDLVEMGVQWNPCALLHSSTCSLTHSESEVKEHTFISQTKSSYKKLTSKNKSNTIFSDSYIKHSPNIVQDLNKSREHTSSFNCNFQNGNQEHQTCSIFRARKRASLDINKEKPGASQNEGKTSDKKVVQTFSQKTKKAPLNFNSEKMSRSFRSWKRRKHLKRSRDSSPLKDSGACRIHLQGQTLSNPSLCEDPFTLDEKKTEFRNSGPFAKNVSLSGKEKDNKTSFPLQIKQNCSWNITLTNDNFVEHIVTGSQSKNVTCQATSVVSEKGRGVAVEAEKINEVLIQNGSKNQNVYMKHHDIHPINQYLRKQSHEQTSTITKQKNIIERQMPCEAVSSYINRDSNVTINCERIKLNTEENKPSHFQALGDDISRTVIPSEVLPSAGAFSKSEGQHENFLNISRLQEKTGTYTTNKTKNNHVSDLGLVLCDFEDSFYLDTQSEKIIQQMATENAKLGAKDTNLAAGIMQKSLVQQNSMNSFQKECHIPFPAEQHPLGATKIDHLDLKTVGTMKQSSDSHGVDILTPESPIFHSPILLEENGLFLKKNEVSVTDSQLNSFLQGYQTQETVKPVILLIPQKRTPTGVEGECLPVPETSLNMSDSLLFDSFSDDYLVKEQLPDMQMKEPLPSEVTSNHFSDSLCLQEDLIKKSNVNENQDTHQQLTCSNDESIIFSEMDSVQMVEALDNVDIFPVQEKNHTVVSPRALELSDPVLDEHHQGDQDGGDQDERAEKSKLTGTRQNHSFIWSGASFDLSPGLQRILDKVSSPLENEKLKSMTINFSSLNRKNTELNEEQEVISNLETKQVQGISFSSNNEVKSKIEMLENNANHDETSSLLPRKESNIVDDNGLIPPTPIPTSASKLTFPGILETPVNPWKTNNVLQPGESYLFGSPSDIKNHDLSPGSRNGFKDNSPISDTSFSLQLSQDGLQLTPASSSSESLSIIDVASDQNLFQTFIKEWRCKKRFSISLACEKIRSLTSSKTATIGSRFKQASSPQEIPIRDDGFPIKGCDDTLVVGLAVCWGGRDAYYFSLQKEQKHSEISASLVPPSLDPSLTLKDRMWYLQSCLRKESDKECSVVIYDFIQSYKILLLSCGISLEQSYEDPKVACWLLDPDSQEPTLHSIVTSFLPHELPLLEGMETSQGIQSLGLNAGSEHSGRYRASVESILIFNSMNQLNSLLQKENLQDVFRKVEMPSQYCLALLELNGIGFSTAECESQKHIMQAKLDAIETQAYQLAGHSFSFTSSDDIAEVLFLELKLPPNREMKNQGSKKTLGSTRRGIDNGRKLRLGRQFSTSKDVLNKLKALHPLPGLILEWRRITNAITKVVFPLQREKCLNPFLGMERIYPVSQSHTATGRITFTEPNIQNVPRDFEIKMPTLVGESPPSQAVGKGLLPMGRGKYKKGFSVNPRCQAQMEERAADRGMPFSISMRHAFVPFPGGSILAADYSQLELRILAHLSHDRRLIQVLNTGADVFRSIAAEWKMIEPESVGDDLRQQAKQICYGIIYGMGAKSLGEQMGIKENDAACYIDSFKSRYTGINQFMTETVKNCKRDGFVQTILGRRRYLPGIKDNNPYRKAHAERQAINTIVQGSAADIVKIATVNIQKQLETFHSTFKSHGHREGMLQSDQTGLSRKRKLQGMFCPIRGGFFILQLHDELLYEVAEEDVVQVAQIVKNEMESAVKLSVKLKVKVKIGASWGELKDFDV
Effect on: enzyme activity
Mode: inhibitor
Concentration: 77 µM
Reference: untreated
SMILES	remaining activity
CC[C@H]1[C@@H]2C[C@H]3[C@@H]4N(C)c5ccccc5[C@]45C[C@@H]([C@H]2[C@H]5O)N3[C@@H]1O	101%
Cc1[nH]c2ccc(O)cc2c1CCN	107%
C[C@]12CC[C@H](O)CC1=CC[C@@H]1[C@@H]2CC[C@]2(C)C(=O)CC[C@@H]12	101%

Study 5
Structure (SMILES): CC(=O)N[C@@H](Cc1c[nH]c2ccccc12)C(=O)N[C@@H](CCC(=O)C=[N+]=[N-])C(=O)OC(C)C
Species: C57BL/6 CES1-/- mouse, both sexes
dose	time	body weight
0.1 mg/kg	day 16	96.6% and 104% and 105% and 109% and 100% and 114%
0.3 mg/kg	day 14	95.7% and 100% and 103%
0.3 mg/kg	day 18	95.7% and 100% and 96.4%
0.1 mg/kg	day 7	100%
1 mg/kg	day 15	100% and 93.9% and 93.1% and 90.9%

Study 6
Target: Serine/threonine-protein kinase 33 (STK33, Homo sapiens, UniProt Q9BYT3)
Chain of UniProt Q9BYT3 (whole entry, looked up): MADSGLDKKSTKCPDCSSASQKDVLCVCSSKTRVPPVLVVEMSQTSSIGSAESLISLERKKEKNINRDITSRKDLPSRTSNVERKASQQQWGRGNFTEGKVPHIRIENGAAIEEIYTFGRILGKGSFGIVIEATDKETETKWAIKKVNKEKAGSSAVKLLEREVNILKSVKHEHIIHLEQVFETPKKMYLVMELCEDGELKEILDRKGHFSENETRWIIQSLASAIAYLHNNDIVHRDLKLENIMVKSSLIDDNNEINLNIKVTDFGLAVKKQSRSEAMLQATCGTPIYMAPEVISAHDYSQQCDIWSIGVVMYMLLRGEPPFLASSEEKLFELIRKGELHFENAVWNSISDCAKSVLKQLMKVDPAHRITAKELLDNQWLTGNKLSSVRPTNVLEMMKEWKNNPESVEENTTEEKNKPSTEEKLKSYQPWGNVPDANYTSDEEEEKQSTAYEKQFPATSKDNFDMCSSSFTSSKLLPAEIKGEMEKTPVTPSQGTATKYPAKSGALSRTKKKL
Effect on: enzyme activity
Mode: inhibitor
Method: radiometric
Concentration: 0.5 µM
Compound	remaining activity [%]
O=C(O)/C=C/c1cc(Br)c(Br)c(Br)c1Br	67.9
Clc1ccc(Nc2nnc(Cc3ccncc3)c3ccccc23)cc1	94.2
Nc1nc(Nc2ccc(S(N)(=O)=O)cc2)nn1C(=S)Nc1c(F)cccc1F	35.1
N#CC(c1ccnc(NCCc2cccnc2)n1)c1nc2ccccc2s1 (stereo not shown)	55.4
NC(=O)c1cccc(-c2cc(Nc3ccc(OC(F)(F)F)cc3)ncn2)c1	92.1
NC(=O)c1ccc(-c2nc(-c3ccc4c(c3)OCCO4)c(-c3ccccn3)[nH]2)cc1	98.3
CC(C)N(CCC(=O)c1ccc2ccccc2c1)Cc1ccccc1	104
CC(C)(C)c1nc2c3cc[nH]c(=O)c3c3cc(F)ccc3c2[nH]1	53.8
FC(F)(F)c1ccc(/C=C/c2nc(COc3ccc(CCCCn4ccnn4)cc3)co2)cc1	93.7
O=c1c(-c2ccc(F)cc2)c(-c2ccncc2)[nH]n1-c1ccc(Cl)cc1	101
C[C@@H](N)[C@H]1CC[C@H](C(=O)Nc2ccncc2)CC1	103
O=C1c2ccccc2-c2nc3nnnn3nc21	107
O=Nc1c(-c2c(O)[nH]c3ccccc23)[nH]c2ccccc12	44.1
O=C(c1ccccc1)c1ccc(N2CCOCC2)cc1O	108
O=C1NC(=O)/C(=C/c2ccc3c(c2)OC(F)(F)O3)S1	90.8
c1cc(-c2cnn3cc(-c4ccc(OCCN5CCCCC5)cc4)cnc23)ccn1	37.4
N#C/C(=C(/N)SC1C=CC=CC1)c1cccc(C(O)c2ccncc2)c1 (stereo not shown)	95.5
CCN(CC)CCCCN1c2ccccc2Oc2ccc(Cl)cc21	89.9
CNc1cc2c(Nc3cccc(Br)c3)ncnc2cn1	95.2
COc1cc2c(N3CCN(C(=O)Nc4ccc(OC(C)C)cc4)CC3)ncnc2cc1OCCCN1CCCCC1	91.1
CC(C)n1cnc2c(Nc3cccc(Cl)c3)nc(NCCO)nc21	68.1
CCCCc1c(-c2ccc(O)cc2)[nH]c2nccnc12	80.8
COc1cc2c(Nc3ccc(Br)cc3F)ncnc2cc1OCC1CCN(C)CC1	85.1

Single results of other studies
Structure (SMILES)	organism	strain	concentration	reference	quantity	value
CN[C@H](CC(C)C)C(=O)N[C@H]1C(=O)N[C@@H](CC(N)=O)C(=O)N[C@H]2C(=O)N[C@H]3C(=O)N[C@H](C(=O)N[C@H](C(=O)O)c4cc(O)cc(O)c4-c4cc3ccc4O)[C@H](O)c3ccc(c(Cl)c3)Oc3cc2cc(c3O[C@@H]2O[C@H](CO)[C@@H](O)[C@H](O)[C@H]2O[C@H]2C[C@](C)(N)[C@H](O)[C@H](C)O2)Oc2ccc(cc2Cl)[C@H]1O	Staphylococcus aureus	hemB transposon mutant	concentration not given	wild type	MIC change	no effect

Some of these lines once more (study 3):
target	Kd [µM]
EPHA1 (Homo sapiens, UniProt P21709)	> 10
CDK7 (Homo sapiens, UniProt P50613)	> 10
BRSK2 (Homo sapiens, UniProt Q8IWQ3)	> 10
HIPK2 (Homo sapiens, UniProt Q9H2X6)	> 10
